Published values gathered from unrelated publications.
Each numbered part is a random draw from the data of one study; scales do not carry over between parts.

Set 1 — method: protein binding microarray; molecule type: double-stranded DNA, one strand shown; matrix: in vitro; concentration: not given; relative to: not given; reading: higher = stronger binding
Target: Histone acetyltransferase KAT6A, both winged helices, GST fusion (KAT6A, Homo sapiens, UniProt Q92794, residues 1-181)
Notes: 8-mer, flanks averaged, mean of 2 arrays, mostly near background
Residues (chain): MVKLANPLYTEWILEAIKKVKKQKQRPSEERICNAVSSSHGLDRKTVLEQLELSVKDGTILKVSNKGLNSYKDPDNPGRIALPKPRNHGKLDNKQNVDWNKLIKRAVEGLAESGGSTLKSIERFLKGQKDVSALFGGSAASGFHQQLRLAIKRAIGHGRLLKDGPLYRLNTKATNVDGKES
Oligonucleotide	E-score
CAGTCTCC	-0.0103
GGGTCCTA	-0.194
CAATCGTG	-0.0537
CCCCATGA	-0.273
ATCTCAGC	0.0341
AGTGTCCG	0.066
CGCAACCC	0.0594
AATAGAGG	-0.0637
CACTTCTG	-0.0733
CCTGCACG	-0.0405
CGAACCGC	0.206
CAACTGAC	-0.0428
GAGCATCA	-0.11
CGAATATA	-0.0404
CAGAAACG	-0.00311
GAGCGTAA	0.122
GAGTATAC	0.017
ATCCAAAC	-0.199
CATGGCTC	0.0571
CGCCGTGA	0.323
ACGCCGCC	0.321
AACGCAAA	0.149
CAGTCTAC	-0.0244
CGAGCCAG	-0.00785
AATTACGC	0.0837

Set 2 — method: RNA Bind-n-Seq; molecule type: RNA; matrix: in vitro; concentration: 365 nM; relative to: no-protein control; reading: higher = stronger binding
Target: RNA binding protein fox-1 homolog 2, RRM domain, GST-SBP tag (RBFOX2, Homo sapiens, UniProt O43251-10, residues 100-194)
Notes: natural RNA segment, single round, ends assumed
Constant ends, left off below: GGGAGUUCUACAGUCCGACGAUC … UGGAAUUCUCGGGUGCCAA
Residues (chain): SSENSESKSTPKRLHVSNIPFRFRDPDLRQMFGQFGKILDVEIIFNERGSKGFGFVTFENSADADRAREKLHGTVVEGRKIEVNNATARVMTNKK
Oligonucleotide	RBNS enrichment (R)
UCUGAUCCUGCUACUGGAGCUUAAAAUAACAAGUAAAGAAAAGUGUUAGAAACAAAGCUAAAAUUUUAACAUGAUUAAUAAUAGAGAAGUUGGGUUUGGUUCUGUUGUUA	0.734
UAAGCUAUGAGUUGAACUGUUUCUGUCAAGUAUGUCUUGUGUCCACACAUGGUUUGGAUGCUUCUAUAUUGGCCCUGCCCAGGUAGAAAGGGUAAGAAGAACAUGUAGAA	0.994
GACAUUGUCAAGGAAGAUAUACGUAGAGGAUCUUAACUGACUCACAGGAAGCACUUGUCCCCCCUGGCACGGAAUCCAGAGGGUUCCUCGUCCUUUACCAGUGUCAACCC	0.58
AGUCAAACUUUAUUACAACAAUAACUGAAGUUAUUCUUUUAGGUUCUCGUGAAAUUCUCACUGAAAGCCACAUUCUUAGCCUAAGGCAUUUCAUCUUUUAUGAUAUAAAA	0.283
UUCAAAGAGGUGAACAUUAAAAUAUAGAGACAGGACAGAAUGUGUUCUUUUCUCCUUUACCAGUCCUAUUUUUCAAUGGGAAGACUCAGGAGUCUGCCACUUGUCAAAGA	0.957
UGUCAGUGCAUACUCCUUCCUGACGAUCCCCUGGGGCAAGCUGCCGACAGUGGCGUAAACAGGAGACAUCACCCUAUACUGCGAAACUACAGAAAGGAAGACAGCUUGGC	0.534
UUUGAUAAGUUGUUGAGAUUCUGUUAUUUGAUAAUAUUCUUCGGCUGUCCAUCCAGCAUCUUAAUCACUUUAAAACUGUGAUUGUUAUUUGCAACUCUGUUCUUUGGAAA	0.517
UCUGCACAGUGCAGGAGACUUUAUUCCUUUGGAAAAUUCACUGUUCCACAAACAGCAGGCUGAAUGGCCUCGCCUCUAGAUUGACGUGGGCCAGCCUCCUUGAGACACAC	0.333
GAAGAAGAUUUUGAGGAUGAUGAUGAGUGGGAAGACUGAUCUAUAUAUUAUAUAUAUAUAUUUUUAAGGUGAAAUACUAAACACUACUUCCUGUCUAUUGAUCUGUAAAA	0.899
CUGCUGCAGGGAGGCCUGGCCUAUUUUUUCUUAAAACAUAUUUUAUAAAACUACAACCUGAUCUACCCUCCAGGGCCUCCUCAGUUCCACUGAUUGAAAUUUUCUUCUUC	0.375
CUUAAGGUCAGAACUUUUACAGACAACAAACAACCCUAGGGUUUCUUUUUCCAGUUUACACAGACCGGUCCCCACAGUGCAGAAUCCAUUUCUCUUUCGUCUCAACAGUA	0.656
CCAGUGGAGGUUUGUCGGGCACCAGCCAGCGUAGCAGGGUCGGGAAAGGCCACCUGUCCCACUCCUACGAUACGCUACUAUAAAGAGAAGACGAAAUAGUGACAUAAUAU	0.346

Set 3 — method: RNA Bind-n-Seq; molecule type: RNA; matrix: in vitro; concentration: 200 nM; notes: whole 134-nt RNA, ends assumed; added: 150 mM LiCl; relative to: input library; reading: higher = stronger binding; library: 7-deaza-guanosine replaces G
Target: Ras GTPase-activating protein-binding protein 1, full length (G3BP1, Homo sapiens, UniProt Q13283)
Sequence of UniProt Q13283 (whole entry, looked up): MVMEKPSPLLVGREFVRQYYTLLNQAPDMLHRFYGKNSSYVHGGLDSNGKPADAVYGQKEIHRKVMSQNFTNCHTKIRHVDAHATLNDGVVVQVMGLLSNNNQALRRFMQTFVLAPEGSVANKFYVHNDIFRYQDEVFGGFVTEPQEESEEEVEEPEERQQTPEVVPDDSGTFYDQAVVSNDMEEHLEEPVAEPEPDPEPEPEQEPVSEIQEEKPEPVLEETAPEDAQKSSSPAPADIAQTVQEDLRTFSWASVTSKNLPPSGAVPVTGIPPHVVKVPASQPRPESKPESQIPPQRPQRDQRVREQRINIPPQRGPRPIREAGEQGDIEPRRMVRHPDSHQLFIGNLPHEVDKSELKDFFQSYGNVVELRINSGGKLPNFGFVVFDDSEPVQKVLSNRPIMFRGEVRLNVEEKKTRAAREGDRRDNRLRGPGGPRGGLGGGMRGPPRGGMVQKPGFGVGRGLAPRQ
Constant ends, left off below: GGGAGUUCUACAGUCCGACGAUC … UGGAAUUCUCGGGUGUCAAGG
Oligonucleotide	log2 enrichment
CUCAAGUCCUGUGCUACACAUCGUAUGUACCGAAUCGGAGGUUUUUUUGGAGGAAAGUAUUAUGUUACGCCGUUCGGAUCUGCACUUCCA	0.383
CUGUGCUACACAUCGUAUGUACCGAAUCGGGGUUUUUUUGGGGUUUUUGGGGUUUUUGGGGAAAGUAUUAUGUUACGCCGUUCGGAUCUG	1.47
AAGUCCUGUGCUACACAUCGUAUGUACCGAAUCGGGGUUUGGGGAGGGGUUUGGGGAAAGUAUUAUGUUACGCCGUUCGGAUCUGCACUU	-0.194
UUUGCAGAGCAGUCUCUGAUGAAGAAUGCCAUAAAAACAUCGGAGGAGUCAUGGAUUGAACAGCAGAUGCUAGAAGACAAGAAACGGGCC	-2.19
ACCAUGCAGGUGGGCAUCUUUGGGAAGUGGGGCAAGGGGGGGAUAGGGAGGGGGGUAACACUUUGGGAACAGGAGGUCCCAGGUCGUUUC	-0.0452
GUCCUGUGCUACACAUCGUAUGUACCGAAUCGGGUUUGGGUUUUUUUGGGUUUUUGGGAAAGUAUUAUGUUACGCCGUUCGGAUCUGCAC	0.2
UGGGAGGUGGAUUUUGUUUAUUUUUUUAGCUCAUUUCCAGGGGUGGGAAUUUUUUUUUAACAUGUGUCAUGAAUAAAGUUGUUUUUGAAA	-0.56
UCCUGUGCUACACAUCGUAUGUACCGAAUCGGGGUUUUUUGGGUUUUUUGGUUUUUUGGGAAAGUAUUAUGUUACGCCGUUCGGAUCUGC	0.498
UGGCCCUGGUGGCAUGCGGGGAGGAAGAGGUGGCCUAAUGGAUCGUGGUGGUCCCGGUGGAAUGUUCAGAGGUGGCCGUGGUGGAGACAG	0.581
CAAGUCCUGUGCUACACAUCGUAUGUACCGAAUCGGGUGGGUUUUUUUGGGAGGGAAAGUAUUAUGUUACGCCGUUCGGAUCUGCACUUC	0.521
AGUCCUGUGCUACACAUCGUAUGUACCGAAUCGGGAAAAAGGGAGGGAAAAAAAGGGAAAGUAUUAUGUUACGCCGUUCGGAUCUGCACU	-0.25

Set 4 — method: protein-binding microarray; molecule type: double-stranded DNA, one strand shown; matrix: in vitro; concentration: 250 nM; notes: 60-bp whole probe; added: salmon DNA 0.4 mg/ml; relative to: random background probes; reading: higher = stronger binding; constant ends, left off below: GCCTAGCAC … GTCTTGATTCGCTTGACGCTGCTG
Target: Interferon regulatory factor 5, full length, phosphomimetic (IRF5, Homo sapiens, UniProt Q13568-2, residues 1-514, K96S/S451D/S453D/S456D/S462D)
Oligonucleotide	log fluorescence
TCAGGTATGGCCTATTTAACTGTGCTA	-0.338 z-score
GACGATATCGGGTATTGAGACGTGCTA	1.72 z-score
TTAGGTTTCGACTTTCGGATAGTGCTA	8.92 z-score
GACGGTTTCCTTACCCTGACGTGCTAG	0.478 z-score
CACGATATCGGGACTGGAGACGTGCTA	0.574 z-score
TGTGTTTTAAATAGGGCAAAGTGCTAG	0.335 z-score
ACGTAGAAGGAAGAAGCACGGTGCTAG	-0.242 z-score
CCAGTGCTGCTTTGTCAAGAGTGCTAG	-0.39 z-score
TTTGATTTCGGGACTGGATTAGTGCTA	4.37 z-score
GACTGTATCGACACTGGGGACGTGCTA	1.78 z-score
TTAGGTCTCGGTTTGGGTTAGTGCTAG	0.885 z-score
TTTCACACTGTCCAGCAGGTGTGCTAG	7.31 z-score
TTACGACTGGACTATCGGTTAGTGCTA	6.31 z-score
TTAGGTCTTCTTCTCCTTTAGTGCTAG	0.271 z-score
CCCTGAGGAATCCTGCAGCCGTGCTAG	-0.762 z-score
TTAAGACTGCTTCTCCTTTAGTGCTAG	0.14 z-score

A few entries again (set 1):
Oligonucleotide	E-score
ACGCCGCC	0.321
AATTACGC	0.0837
GAGTATAC	0.017
CGAACCGC	0.206
CGAGCCAG	-0.00785
ATCCAAAC	-0.199
ATCTCAGC	0.0341
CAGTCTAC	-0.0244
CAACTGAC	-0.0428
GAGCATCA	-0.11
CAGTCTCC	-0.0103
